Measured values of several laboratories.
Parts stem from different laboratories: compare values within a part only. Positions count from the first letter of the parent shown.

Series 1
Target: Sal-like protein 4, full length isoform B (SALL4, Homo sapiens, UniProt Q9UJQ4-2, residues 1-616)
Method: universal PBM
Form: double-stranded DNA, one strand shown
Sample: in vitro
Tested at: not given
Notes: 8-mer, flanks averaged, mean of replicates
Direction: higher = stronger binding
Residues (chain): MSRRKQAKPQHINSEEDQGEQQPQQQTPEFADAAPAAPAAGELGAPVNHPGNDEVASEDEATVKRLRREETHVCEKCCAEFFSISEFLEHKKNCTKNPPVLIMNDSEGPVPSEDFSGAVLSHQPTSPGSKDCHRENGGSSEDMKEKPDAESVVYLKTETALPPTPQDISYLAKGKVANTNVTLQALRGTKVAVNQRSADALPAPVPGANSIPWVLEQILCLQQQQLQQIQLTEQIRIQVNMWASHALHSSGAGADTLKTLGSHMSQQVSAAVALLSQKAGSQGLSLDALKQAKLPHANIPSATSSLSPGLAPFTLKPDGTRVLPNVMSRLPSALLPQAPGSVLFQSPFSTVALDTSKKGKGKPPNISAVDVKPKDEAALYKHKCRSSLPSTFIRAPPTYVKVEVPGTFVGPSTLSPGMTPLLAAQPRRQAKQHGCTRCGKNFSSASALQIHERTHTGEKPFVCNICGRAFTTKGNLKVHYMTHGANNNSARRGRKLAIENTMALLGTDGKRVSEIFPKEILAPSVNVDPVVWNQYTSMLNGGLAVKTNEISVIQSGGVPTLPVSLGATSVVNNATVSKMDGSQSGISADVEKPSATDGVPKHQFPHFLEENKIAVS
Sequence | E-score
ACTAATTG | 0.128
CGTTACAA | 0.176
CCGTCAAC | -0.0768
AAAGGGCA | 0.0291
ATCCTGCC | -0.187
ATTTTACC | 0.325
AATCGGAA | -0.00077
GGTGCGAC | -0.223
GATCTCAC | -0.0654
GTCTAGAC | -0.308
CCTCGGCC | -0.265
CAATTTCA | 0.222

Series 2
Target: Hepatocyte nuclear factor 3-beta, forkhead domain (FOXA2, Homo sapiens, UniProt Q9Y261, residues 142-269)
Method: protein-binding microarray
Form: double-stranded DNA, one strand shown
Sample: in vitro
Tested at: not given
Notes: k-mer, scored over probes, only values ≥0.25
Direction: higher = stronger binding
Residues (chain): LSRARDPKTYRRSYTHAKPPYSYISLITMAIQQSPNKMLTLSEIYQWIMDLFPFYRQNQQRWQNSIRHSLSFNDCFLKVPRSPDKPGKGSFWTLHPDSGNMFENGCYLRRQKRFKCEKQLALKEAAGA
Sequence | E-score
GGATAGTA | 0.276
CATATCAA | 0.28
TATGAAAA | 0.268
AATCTATG | 0.256
ATACGAAA | 0.266
ATTTGTAC | 0.287
AAATGGTA | 0.366
CATGTATA | 0.376
ATTATGTA | 0.33
ACTAACAT | 0.282
ATCATACG | 0.266
ATAAGTCA | 0.296
CATCACCA | 0.307
TGTATTAA | 0.325

Series 3
Target: Ras GTPase-activating protein-binding protein 1, RRM domain (G3BP1, Homo sapiens, UniProt Q13283)
Sequence of UniProt Q13283 (whole entry, looked up): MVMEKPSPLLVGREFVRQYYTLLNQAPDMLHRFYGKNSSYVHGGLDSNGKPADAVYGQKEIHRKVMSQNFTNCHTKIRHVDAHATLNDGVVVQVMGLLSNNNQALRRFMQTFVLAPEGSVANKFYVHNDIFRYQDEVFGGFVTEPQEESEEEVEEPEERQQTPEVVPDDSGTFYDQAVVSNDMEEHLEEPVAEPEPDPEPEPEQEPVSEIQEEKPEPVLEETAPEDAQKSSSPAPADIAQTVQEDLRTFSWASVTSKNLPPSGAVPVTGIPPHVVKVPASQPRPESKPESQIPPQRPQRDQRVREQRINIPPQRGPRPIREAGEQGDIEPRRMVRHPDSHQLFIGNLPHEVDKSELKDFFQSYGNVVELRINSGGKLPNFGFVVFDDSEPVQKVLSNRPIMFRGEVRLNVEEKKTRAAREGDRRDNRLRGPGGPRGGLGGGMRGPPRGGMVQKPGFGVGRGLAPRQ
Method: RNA Bind-n-Seq
Form: RNA
Sample: in vitro
Tested at: 1 µM
Notes: whole 134-nt RNA, ends assumed
With: 150 mM KCl
Relative to: input library
Direction: higher = stronger binding
Constant ends, left off below: GGGAGUUCUACAGUCCGACGAUC … UGGAAUUCUCGGGUGUCAAGG
Sequence | log2 enrichment
UAACUCUAGAGGAGGAUCUGAUGGAUAUGGCAGUGGACGUGGAUUUGGGGAUGGCUAUAAUGGGUAUGGAGGAGGACCUGGAGGUGGCAA | -0.521
CUGUGCUACACAUCGUAUGUACCGAAUCGGGGCCCCCCCGGCCCCCCCGGGCCCCCCCGGGAAAGUAUUAUGUUACGCCGUUCGGAUCUG | -0.661
GCAGGAAGUAAAAACGAAUGGAAAUGCUUCGGAUAGUGGCAGGGGUGGGGGUUGCUAAGGAAAGGGUGGGAUGGGAGUGGGUAAAGAGUU | 1.1
ACCAUGCAGGUGGGCAUCUUUGGGAAGUGGGGCAAGGGGGGGAUAGCGAGGGGGGUAACACUUUGGGAACAGGUGGUCCCAGGUCGUUUC | 0.783
CAAGUCCUGUGCUACACAUCGUAUGUACCGAAUCGGGAAAGGGAAAGGAAAGGGGAAAGUAUUAUGUUACGCCGUUCGGAUCUGCACUUC | 0.0815
UCAAGUCCUGUGCUACACAUCGUAUGUACCGAAUCGGUUGGGUUGGGGUUGGGGAAAGUAUUAUGUUACGCCGUUCGGAUCUGCACUUCC | 0.195
UACAGGAGCUUCCUGGGACUGACCUGCCUGAUGCAAAUUUCUACUCGGACGGAAGACUUCAUCAUUGACACCCUCGAGCUUCGAAGUGAC | 0.0428
CUGUGCUACACAUCGUAUGUACCGAAUCGGGGCCCCCCCGGGGCCCCCCCGGCCCCCCCGGAAAGUAUUAUGUUACGCCGUUCGGAUCUG | -0.714
UGGGAGGUGGAUUUUGUUUAUUUUUUUAGCUCAUUUCCAGCGGUGGGAAUUUUUUUUUAAUAUGUGUCAUGAAUAAAGUUGUUUUUGAAA | 2.22
GCAGGAAGUAAAAACAAAUGGAAAUGCUUCGGAUAGAAACAGGGGUGGGGGUUGCUAAGGAAAGGGUGGGAUGGGAGUGGGUAAAGAGUU | 1.05
UGGGAGGUGGAUUUUGUUUAUUUUUUUAGCUCAUUUCCAGGGGUGGGUAUUUUUUUUUAAUAUGUGUCAUGAAUAAAGUUGUUUUUGAAA | 1.38
GCAGGAAGUAAAAACAAAUGGAAAUGCUUCGGAUAGUGGCAGGGGUGGGGGUUGCUAAGGAAAGGGUGGGAUAAAAGUGGGUAAAGAGUU | 0.955

Series 4
Target: RING finger protein unkempt homolog, zinc fingers 1-6, GST-SBP tag (UNK, Homo sapiens, UniProt Q9C0B0, residues 30-357)
Method: RNA Bind-n-Seq
Form: RNA
Sample: in vitro
Tested at: not given
Notes: RNA with constant flanks, human and mouse sites, ends assumed
Relative to: input RNA pool
Direction: higher = stronger binding
Constant ends, left off below: GGGAGUUCUACAGUCCGACGAUC … CAACAGAGGAUUGAGCAUCA
Target sequence (chain): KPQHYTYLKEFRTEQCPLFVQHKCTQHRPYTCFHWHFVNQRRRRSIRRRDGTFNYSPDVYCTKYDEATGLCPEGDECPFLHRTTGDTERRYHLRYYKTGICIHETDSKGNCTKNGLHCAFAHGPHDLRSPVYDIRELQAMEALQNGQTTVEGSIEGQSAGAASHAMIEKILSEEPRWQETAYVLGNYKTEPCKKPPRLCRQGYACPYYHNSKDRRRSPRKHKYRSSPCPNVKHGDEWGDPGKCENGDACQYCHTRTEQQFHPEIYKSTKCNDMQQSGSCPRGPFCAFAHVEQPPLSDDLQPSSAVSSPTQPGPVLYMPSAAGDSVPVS
Sequence | bound/input enrichment [ratio]
AAGAUGGAGGGUAGCUAGGUAGCUAUGUUGGUCCGUGCUCGACCGGCCCAAUGUUGCCUUUAGUUUUGCCAUUCAGACCAGUGGGUCGGUGUGAUGAUUUAUUCCUGGCGCCCAUAUGAG | 0.459
CGUGACCUCAAACCCAAUGGGGCCAACAUCUUGGUAACAGAGGAGAAUAAGAAGGAGUAUGUACACCUGGUAUGCCAGAUGAGAAUGACAGGAGCCAUCCGCAAGCAGUUGGCGGCUUUC | 0.121
AGAGCCAAGAUGGCUGUCCUCUCUAAGGAGUAUGGAUUUGUGCUUCUCACUGGUGCUGCCAGCUUUGUGAUGGUGCUCCACCUAGCCAUCAACGUGGGCAAAGCCCGCAAGAAGUACAAG | 0.21
CCUCCGCCCUCACCGUUGCCAUUUCCGACGCAAGCUAUCCUUCCUCCGGCACCUUCCAGCUACUUCUCUCAUCCAACAAUCAGAUAUCCUCCUCACCUGAAUCCUCAGGAUACUCUGAAG | 0.454
UCCGAGCUAAGGCGCAUGCGUUCCCUGAAAUUGCCGCCACCGGCUCUACCUUCCAGUUUCCAGUUCCGGCCUCCAAGGGGCGGGCAGAAGUUGGAAACAUGCGGCUGUCGGUCGCUGCAG | 0.0513
UCUUGUUCAUCCAGCCUGAGUGCUCUGAGCCUCGAUGAGCCAUUUAUACAGAAAGAUGUGGAAUUAAGAAUAAUGCCUCCAGUUCAGGAAAAUGACAAUGGGAAUGAAACAGAAUCAGAG | 0.0958
GCUGUGUCUUUGACUCUUGAUCAGAGCCAGUCACAGGCUUCUUUGGAAGCAGUAGAAGUCCCUUCAAUGGCCUCAUCUUGGGGUGGGCCACAUUUUUCUCCAGAACAUAAAGAACUGUCU | 0.128
ACUUCAUUUUGAUUGAGUACAUGAUUUUUGAACAACUCCUAUACCUGCUCUUUGUAAGAAAUUAAAUAAAGUUAUUUUGGAUUGUUCCACCUUUGUAAACAAUUGGCUAAAGAGGGAUCA | 0.456

Series 5
Target: CCNE2, cyclin fold, Cln2 fusion (human)
Method: yeast growth competition, sequencing
Sample: yeast
Notes: strong parent motif
Relative to: not given
Direction: higher = stronger binding
Starting sequence: GMNC docking peptide (human); KNAKRNLSSEFAN; partner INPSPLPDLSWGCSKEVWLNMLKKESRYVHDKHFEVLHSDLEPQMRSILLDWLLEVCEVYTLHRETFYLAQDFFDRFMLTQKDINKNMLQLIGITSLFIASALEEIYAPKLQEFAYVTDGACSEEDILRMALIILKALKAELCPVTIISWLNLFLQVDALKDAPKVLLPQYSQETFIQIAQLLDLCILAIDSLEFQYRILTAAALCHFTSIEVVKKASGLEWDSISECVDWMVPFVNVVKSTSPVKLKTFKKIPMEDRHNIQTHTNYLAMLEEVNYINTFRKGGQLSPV
Change | normalised enrichment score
A12L | 1.07
L7F | 0.559
L7W | 0.0218
A3R | -0.2
S9M | 1.61
K4G | 0.248
E10L | 0.589
S8M | 3.32
A3M | 0.195
A12E | 1.71
A12S | 1.16
L7I | 0.347
E10G | 0.514
L7S | 0.192

Series 6
Target: Interferon regulatory factor 3, full length, phosphomimetic (IRF3, Homo sapiens, UniProt Q14653, residues 1-427, S386D/S396D/S398D/S402D/T404D/S405D)
Method: protein-binding microarray
Form: double-stranded DNA, one strand shown
Sample: in vitro
Tested at: 2540 nM top
Notes: 60-bp whole probe
With: salmon DNA 0.4 mg/ml
Relative to: random background probes
Direction: higher = stronger binding
Constant ends, left off below: GCCTAGCAC … GTCTTGATTCGCTTGACGCTGCTG
Construct (chain): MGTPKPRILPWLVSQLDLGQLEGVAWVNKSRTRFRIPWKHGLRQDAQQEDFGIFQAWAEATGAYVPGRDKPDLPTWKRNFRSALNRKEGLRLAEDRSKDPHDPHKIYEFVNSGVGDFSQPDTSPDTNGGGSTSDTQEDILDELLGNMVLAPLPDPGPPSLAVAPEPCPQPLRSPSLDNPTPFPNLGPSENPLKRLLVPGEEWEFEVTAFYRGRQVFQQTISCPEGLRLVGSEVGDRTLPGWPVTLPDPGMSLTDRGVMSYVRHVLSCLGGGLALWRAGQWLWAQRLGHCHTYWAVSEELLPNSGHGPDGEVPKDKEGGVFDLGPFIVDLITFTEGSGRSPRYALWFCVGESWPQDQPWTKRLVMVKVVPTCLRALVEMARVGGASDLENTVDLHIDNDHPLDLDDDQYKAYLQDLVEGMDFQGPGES
Sequence | fitted relative affinity
TTAGGTTTCAGTTTCGATTAGTGCTAG | 7.8 z-score
TTTTATTTATAAATTATCTTGTGCTAG | 1.7 z-score
GACGATCTAAGACTGGAGACGTGCTAG | -0.0147 z-score
TCAGTTTACATTTTCCAACTGTGCTAG | 3.93 z-score
TCACTCTTGCTTTTTAGACTGTGCTAG | 1.41 z-score
TTAGGTCCCCTTATCCTTTAGTGCTAG | 1.86 z-score
GACGATTACGGGTATCGAGACGTGCTA | -0.0295 z-score
TCACTTCTGCCTGTCCAACTGTGCTAG | 0.969 z-score
GACGGACTGCTTATCCTGAGGTGCTAG | -0.46 z-score
GACGGTTTCGACTTTCGGGAAGTGCTA | 4.13 z-score
TTTGATTTCAGACTGGATTAGTGCTAG | 0.754 z-score
CAGAATCCAGCTCAGGTTGTGTGCTAG | 0.644 z-score
TTAGATCTGAGTATCGATTAGTGCTAG | 0.308 z-score
TTAGGTATCGGTATCGGTTAGTGCTAG | 5.32 z-score

Series 7
Target: Histone acetyltransferase KAT6A, both winged helices, GST fusion (KAT6A, Homo sapiens, UniProt Q92794, residues 1-181)
Method: protein binding microarray
Form: double-stranded DNA, one strand shown
Sample: in vitro
Tested at: not given
Notes: 8-mer, flanks averaged, mean of 2 arrays, mostly near background
Relative to: not given
Direction: higher = stronger binding
Residues (chain): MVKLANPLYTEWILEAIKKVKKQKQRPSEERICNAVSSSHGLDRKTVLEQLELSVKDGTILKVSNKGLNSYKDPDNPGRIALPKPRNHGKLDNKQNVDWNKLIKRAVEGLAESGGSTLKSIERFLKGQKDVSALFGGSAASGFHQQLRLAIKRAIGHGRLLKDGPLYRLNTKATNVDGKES
Sequence | E-score
CAACAGGC | 0.0504
GGAATTAC | 0.0689
GGGCGCCC | 0.245
GAGAGCTA | -0.0831
CCAAAAGA | -0.21
ACGCGGTA | 0.296
AGAGGCAG | -0.315
GTACTCAC | -0.152
GCGCCCTA | 0.219
ATGAATAA | -0.126
GGTACAAA | -0.069
AGTAAGCA | -0.192
AACTTACT | -0.236
